Measurements from different studies.
Protocols differ between the studies behind these lines. Numbers after ± are the reported error.
ISOC2: Isochorismatase domain-containing protein 2 (ISOC2, Homo sapiens, UniProt Q96AB3)
Sequence of UniProt Q96AB3 (whole entry, looked up): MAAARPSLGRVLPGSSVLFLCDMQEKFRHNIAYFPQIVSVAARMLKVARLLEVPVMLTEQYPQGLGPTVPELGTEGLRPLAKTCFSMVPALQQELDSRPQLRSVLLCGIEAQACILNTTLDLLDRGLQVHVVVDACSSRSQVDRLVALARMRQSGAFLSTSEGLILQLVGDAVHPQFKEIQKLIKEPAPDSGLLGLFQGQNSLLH
Sequence of UniProt P00370 (whole entry, looked up): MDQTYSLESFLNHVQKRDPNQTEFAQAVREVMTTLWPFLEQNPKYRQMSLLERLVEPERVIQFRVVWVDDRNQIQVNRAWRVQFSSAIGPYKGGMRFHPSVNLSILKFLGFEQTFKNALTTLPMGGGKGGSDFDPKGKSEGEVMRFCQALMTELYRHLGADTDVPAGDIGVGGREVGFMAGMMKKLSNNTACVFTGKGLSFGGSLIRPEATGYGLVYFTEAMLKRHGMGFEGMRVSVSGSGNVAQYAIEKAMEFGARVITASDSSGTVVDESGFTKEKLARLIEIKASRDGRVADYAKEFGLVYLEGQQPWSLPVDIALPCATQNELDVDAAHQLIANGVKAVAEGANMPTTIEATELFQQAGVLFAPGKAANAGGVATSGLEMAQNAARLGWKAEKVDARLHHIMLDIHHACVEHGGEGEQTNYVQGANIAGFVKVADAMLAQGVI
Sequence of UniProt Q16774 (whole entry, unmodified, looked up): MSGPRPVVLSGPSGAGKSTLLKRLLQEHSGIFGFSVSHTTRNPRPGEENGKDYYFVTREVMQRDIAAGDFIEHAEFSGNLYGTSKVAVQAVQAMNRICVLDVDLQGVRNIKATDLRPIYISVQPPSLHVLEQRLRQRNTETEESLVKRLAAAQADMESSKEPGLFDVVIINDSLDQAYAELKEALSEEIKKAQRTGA
Sequence of UniProt Q8N1Q1 (whole entry, looked up): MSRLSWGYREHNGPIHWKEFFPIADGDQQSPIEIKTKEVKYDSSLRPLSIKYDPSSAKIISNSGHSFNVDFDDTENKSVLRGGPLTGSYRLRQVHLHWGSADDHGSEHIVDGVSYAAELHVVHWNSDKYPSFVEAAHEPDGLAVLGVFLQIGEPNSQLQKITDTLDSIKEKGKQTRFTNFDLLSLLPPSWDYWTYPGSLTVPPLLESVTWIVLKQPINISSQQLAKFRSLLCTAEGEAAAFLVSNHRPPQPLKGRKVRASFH
Sequence of UniProt Q96FX7 (whole entry, looked up): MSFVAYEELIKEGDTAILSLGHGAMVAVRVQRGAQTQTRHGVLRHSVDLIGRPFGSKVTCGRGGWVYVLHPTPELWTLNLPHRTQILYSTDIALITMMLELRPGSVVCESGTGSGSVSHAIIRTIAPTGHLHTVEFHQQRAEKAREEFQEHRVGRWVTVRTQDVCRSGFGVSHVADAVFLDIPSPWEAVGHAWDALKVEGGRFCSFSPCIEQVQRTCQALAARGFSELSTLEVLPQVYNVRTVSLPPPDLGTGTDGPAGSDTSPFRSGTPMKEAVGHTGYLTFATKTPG
Sequence of UniProt P0AGE0 (whole entry, looked up): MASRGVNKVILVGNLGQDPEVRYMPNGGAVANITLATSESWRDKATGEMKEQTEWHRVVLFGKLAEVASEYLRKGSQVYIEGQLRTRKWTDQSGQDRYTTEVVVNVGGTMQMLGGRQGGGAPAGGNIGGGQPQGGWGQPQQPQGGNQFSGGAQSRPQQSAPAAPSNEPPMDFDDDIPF
Sequence of UniProt Q9BTZ2 (whole entry, looked up): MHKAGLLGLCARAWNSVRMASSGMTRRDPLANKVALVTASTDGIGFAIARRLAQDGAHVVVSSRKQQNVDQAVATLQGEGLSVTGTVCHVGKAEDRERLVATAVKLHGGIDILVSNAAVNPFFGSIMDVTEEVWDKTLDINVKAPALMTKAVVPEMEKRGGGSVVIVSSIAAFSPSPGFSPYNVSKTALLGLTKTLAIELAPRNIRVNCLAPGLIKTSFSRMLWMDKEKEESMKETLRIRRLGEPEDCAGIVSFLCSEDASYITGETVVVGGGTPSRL

SMILES = COc1cc2c3c(n(CCCN4CCC[C@H]4CO)c(=O)c2cc1OC)-c1nc2c(cc1C3=O)OCO2; target = MYC G-quadruplex DNA; assay = binding, fluorescence; setting = pH 7.0, 20 °C, with: K+ 100 mM; Kd = 14 nM
SMILES = CC[C@H](/C=C/[C@@H](C)[C@H]1CC[C@H]2[C@@H]3CC=C4C[C@@H](O)CC[C@]4(C)[C@H]3CC[C@]12C)C(C)C; target = CYP125 ancestral reconstruction; assay = UV-Vis difference spectra; setting = Morrison fit, fixed enzyme; Kd = 600 ± 400 nM
SMILES = O=C(OC[C@H]1O[C@@H](OC(=O)c2cc(O)c(O)c(O)c2)[C@H](OC(=O)c2cc(O)c(O)c(O)c2)[C@@H](OC(=O)c2cc(O)c(O)c(O)c2)[C@@H]1OC(=O)c1cc(O)c(O)c(O)c1)c1cc(O)c(O)c(O)c1; target = TRMT61A (Homo sapiens, UniProt Q96FX7); assay = binding; Kd = 614 nM
SMILES = COc1cc2c3c(n(CCCn4ccnc4)c(=O)c2cc1OC)-c1cc2c(cc1C3=O)OCO2; target = MYC G-quadruplex DNA; assay = binding, fluorescence; setting = pH 7.0, 20 °C, with: K+ 100 mM; Kd = 69 nM
SMILES = Nc1nc2c(ncn2[C@@H]2O[C@H](COP(=O)(O)O)[C@@H](O)[C@H]2O)c(=O)[nH]1; target = GUK1 (Homo sapiens, UniProt Q16774, R41A); assay = binding, ITC; setting = 25 °C, with: GMP; Kd = > 500000 nM
SMILES = CC(=O)Nc1ccc(C(=O)Nc2ccccc2N)cc1; target = ISOC2; assay = inhibitor, competition pulldown; test system = SW620 and MV4-11 lysate; setting = 1 h; Kd = > 30200 nM
SMILES = C=CC(=O)N1CCN(c2nc(OC[C@@H]3CCCN3C)nc3c(F)c(-c4nc(N)cc(C)c4C(F)(F)F)c(Cl)cc23)[C@@H](C)C1; target = GTPase KRas, GDP-bound (KRAS, Homo sapiens, UniProt P01116, Q61H); assay = binding, surface plasmon resonance; Kd = 857 ± 94 nM
SMILES = CCCCCCCC/C=C\CCCCCCCC(=O)OC[C@H](COP(=O)([O-])OCC[N+](C)(C)C)OC(=O)CCCCCCC/C=C\CCCCCCCC; target = Single-stranded DNA-binding protein (ssb, Escherichia coli, UniProt P0AGE0); assay = binding, tryptophan fluorescence quenching; test system = Escherichia coli, 100% in DOPC liposomes; setting = 37 °C; Kd = > 30000 nM
SMILES = Nc1nc2c(ncn2[C@@H]2O[C@@H]3CO[P@](=O)(O)O[C@H]4[C@@H](O)[C@H](n5cnc6c(=O)[nH]c(N)nc65)O[C@@H]4CO[P@](=O)(O)O[C@H]3[C@H]2O)c(=O)[nH]1; target = uncharacterized protein (Treponema denticola, UniProt Q73MV1); Kd = 284000 ± 97000 nM
SMILES = O=C(/C=C/c1cccc(S(=O)(=O)Nc2ccccc2)c1)NO; target = ISOC2; assay = inhibitor, competition pulldown; test system = SW620 and MV4-11 lysate; setting = 1 h; Kd = > 30200 nM
SMILES = CC[C@H](CC[C@@H](C)[C@H]1CC[C@H]2[C@@H]3CCC4=CC(=O)CC[C@]4(C)[C@H]3CC[C@]12C)C(C)C; target = CYP125 ancestral reconstruction; assay = UV-Vis difference spectra; setting = Morrison fit, fixed enzyme; Kd = 400 ± 130 nM
SMILES = O=C(/C=C/c1ccc(CN(CCO)CCc2c[nH]c3ccccc23)cc1)NO; target = ISOC2; assay = inhibitor, competition pulldown; test system = SW620 and MV4-11 lysate; setting = 1 h; Kd = > 30200 nM
SMILES = Nc1nc2c(ncn2[C@@H]2O[C@H](COP(=O)(O)OP(=O)(O)O)[C@@H](OP(=O)(O)OP(=O)(O)O)[C@H]2O)c(=O)[nH]1; target = NADP-specific glutamate dehydrogenase (gdhA, Escherichia coli, UniProt P00370); assay = binding, ITC sequential two-site fit; setting = first site; Kd = 2800 ± 400 nM
SMILES = C#Cc1cccc(Nc2ncnc3cc(OC)c(OCCCCCCC(=O)NO)cc23)c1; target = ISOC2; assay = inhibitor, competition pulldown; test system = SW620 and MV4-11 lysate; setting = 1 h; Kd = 1120 nM
SMILES = CC1=C(C)C(=O)c2ccccc2C1=O; target = Reaction center protein M chain, QA site (pufM, Cereibacter sphaeroides, UniProt P0C0Y9); assay = QA site binding; test system = LDAO detergent solution; setting = pH 7.8, 298 K, with: 1 µM reaction centres; Kd = 30 nM
SMILES = CCCN1CCN(c2ccc(-c3cncc(Cl)c3N3CCC4(CCNC4=O)CC3)cc2)CC1; target = Dehydrogenase/reductase SDR family member 4 (DHRS4, Homo sapiens, UniProt Q9BTZ2); assay = SILAC displacement; test system = LS174T-L5 cell lysate; Kd = 17800 nM
SMILES = Nc1nc(-c2ccc(Cl)c(S(N)(=O)=O)c2)cs1; target = CA13 (Homo sapiens, UniProt Q8N1Q1); assay = thermal shift; setting = pH 7.0, 25 °C; Kd = 100 nM
SMILES = CC(C)[C@H](C)CC[C@@H](C)[C@H]1CC[C@H]2[C@@H]3CC=C4C[C@@H](O)CC[C@]4(C)[C@H]3CC[C@]12C; target = CYP125 ancestral reconstruction; assay = UV-Vis difference spectra; setting = Michaelis-Menten fit; Kd = 3100 ± 1500 nM

Some of these lines once more:
SMILES = O=C(/C=C/c1cccc(S(=O)(=O)Nc2ccccc2)c1)NO; target = ISOC2; assay = inhibitor, competition pulldown; test system = SW620 and MV4-11 lysate; setting = 1 h; Kd = > 30200 nM
SMILES = CC[C@H](CC[C@@H](C)[C@H]1CC[C@H]2[C@@H]3CCC4=CC(=O)CC[C@]4(C)[C@H]3CC[C@]12C)C(C)C; target = CYP125 ancestral reconstruction; assay = UV-Vis difference spectra; setting = Morrison fit, fixed enzyme; Kd = 400 ± 130 nM
SMILES = O=C(/C=C/c1ccc(CN(CCO)CCc2c[nH]c3ccccc23)cc1)NO; target = ISOC2; assay = inhibitor, competition pulldown; test system = SW620 and MV4-11 lysate; setting = 1 h; Kd = > 30200 nM
